Results of several laboratories.
Every numbered part comes from another study and shows a few of its results, in no order.
Sequence of UniProt P18846 (whole entry, looked up): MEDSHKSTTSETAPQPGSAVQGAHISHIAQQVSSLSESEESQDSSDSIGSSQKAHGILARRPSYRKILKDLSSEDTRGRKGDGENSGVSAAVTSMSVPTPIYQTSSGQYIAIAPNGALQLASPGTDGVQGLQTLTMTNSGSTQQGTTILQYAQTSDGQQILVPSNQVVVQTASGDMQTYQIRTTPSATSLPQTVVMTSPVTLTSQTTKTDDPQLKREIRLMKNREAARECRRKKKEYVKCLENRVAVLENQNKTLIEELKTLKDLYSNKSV
Sequence of UniProt P14921 (whole entry, looked up): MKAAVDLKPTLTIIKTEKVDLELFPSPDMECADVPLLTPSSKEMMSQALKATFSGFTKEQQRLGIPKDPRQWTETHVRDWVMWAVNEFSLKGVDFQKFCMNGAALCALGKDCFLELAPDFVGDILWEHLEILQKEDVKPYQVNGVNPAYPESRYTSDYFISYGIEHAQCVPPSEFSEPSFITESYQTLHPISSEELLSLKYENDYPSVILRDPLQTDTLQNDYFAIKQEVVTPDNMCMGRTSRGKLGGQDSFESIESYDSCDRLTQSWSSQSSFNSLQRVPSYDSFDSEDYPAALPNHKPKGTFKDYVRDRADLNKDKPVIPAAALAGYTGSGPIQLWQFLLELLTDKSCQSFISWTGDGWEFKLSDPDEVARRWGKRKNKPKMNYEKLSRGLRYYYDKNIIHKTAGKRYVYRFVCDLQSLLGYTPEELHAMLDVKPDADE

Study 1
Target: Interferon regulatory factor 7, full length, phosphomimetic (IRF7, Homo sapiens, UniProt Q92985, residues 1-503, S101K/S471D/S472D/S475D/S476D/S477D/S483D/S484D/S487D)
Sequence of UniProt Q92985 (whole entry, unmodified, looked up): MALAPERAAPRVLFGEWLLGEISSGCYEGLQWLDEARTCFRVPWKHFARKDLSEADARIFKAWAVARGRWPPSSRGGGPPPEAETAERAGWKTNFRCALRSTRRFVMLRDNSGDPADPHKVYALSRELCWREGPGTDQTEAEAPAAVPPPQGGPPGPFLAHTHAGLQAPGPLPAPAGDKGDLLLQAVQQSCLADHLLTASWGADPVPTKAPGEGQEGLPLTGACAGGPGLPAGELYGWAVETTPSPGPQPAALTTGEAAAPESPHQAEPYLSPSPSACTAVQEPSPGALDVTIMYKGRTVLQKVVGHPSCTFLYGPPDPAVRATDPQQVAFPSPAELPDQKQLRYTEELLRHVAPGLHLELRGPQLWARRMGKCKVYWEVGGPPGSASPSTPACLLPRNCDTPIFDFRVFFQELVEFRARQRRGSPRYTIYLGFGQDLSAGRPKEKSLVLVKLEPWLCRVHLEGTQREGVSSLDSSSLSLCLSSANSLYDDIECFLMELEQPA
Technique: protein-binding microarray
Molecule type: double-stranded DNA, one strand shown
Medium: in vitro
Concentration: 250 nM
Notes: 60-bp whole probe
Together with: salmon DNA 0.4 mg/ml
Baseline: random background probes
Direction: higher = stronger binding
All sequences stand within: GCCTAGCAC … GTCTTGATTCGCTTGACGCTGCTG
`TGAGATCTCAGTCTCGATTAGTGCTAG` has a log fluorescence of 1.48 z-score.
The log fluorescence of `TCAAATTCTCTTTTCACACTGTGCTAG` is reported as 1.32 z-score.
The log fluorescence of `CTTCATGTTGCTCTCCGGGGGTGCTAG` is reported as 0.848 z-score.
`TTAGATCTTAGTATCGATTAGTGCTAG` has a log fluorescence of 1.03 z-score.
`TTAGATCTCCTTCTCCTTTAGTGCTAG` has a log fluorescence of 0.267 z-score.
`TCATATACACTTATGACACTGTGCTAG` gave a log fluorescence of 0.54 z-score.
For `TCATGCTTCAGGTTTACCACTGTGCTA`, the log fluorescence was -0.496 z-score.
The log fluorescence of `GACGGTATCGGGACAGGGGACGTGCTA` is reported as -0.184 z-score.

Study 2
Cell line: HEK-293T
Effect on: pseudovirus infection
Technique: FDA-approved drug library screen
Organism: VSV pseudotyped with SARS-CoV-2 spike
Concentration: 10 µM
Time: 16 h
Baseline: vehicle-treated
`CC1(C)S[C@@H]2[C@H](NC(=O)[C@H](N)c3ccc(O)cc3)C(=O)N2[C@H]1C(=O)O` gave a GFP-positive cells of 83.6%.
`CC(=O)S[C@@H]1CC2=CC(=O)CC[C@]2(C)[C@H]2CC[C@@]3(C)[C@@H](CC[C@@]34CCC(=O)O4)[C@H]12` gave a GFP-positive cells of 102%.
For `CN1C(=O)OC(C)(C)C1=O`, the GFP-positive cells was 98.9%.
`O=C(O)c1cc(-c2ccc(F)cc2F)ccc1O` has a GFP-positive cells of 95.2%.

Study 3
Target: Replicase polyprotein 1ab, main protease (rep, Severe acute respiratory syndrome coronavirus 2, UniProt P0DTD1)
Effect on: enzyme activity
Action: inhibitor
Concentration: 20 µM
Notes: primary screen
With `CN1C2=CC(=O)/C(=N\NC(N)=O)C=C2CC1S(=O)(=O)O` (stereo not shown) the inhibition was 25.4%.
`O=c1c(O)c(-c2ccc(O)cc2O)oc2cc(O)cc(O)c12` gave an inhibition of 30.9%.
The inhibition of `CC[C@]1(O)C[C@H]2C[N@@](CCc3c([nH]c4ccccc34)[C@@](C(=O)OC)(c3cc4c(cc3OC)N(C=O)[C@H]3[C@@](O)(C(=O)OC)[C@H](OC(C)=O)[C@]5(CC)C=CCN6CC[C@]43[C@@H]65)C2)C1` is reported as 74.1%.

Study 4
Target: Replicase polyprotein 1ab, nsp13 helicase (rep, Severe acute respiratory syndrome coronavirus 2, UniProt P0DTD1)
Action: inhibitor
Concentration: 20 µM
For `CC[C@H]1[C@@H](O)[C@@H]2[C@H](CC[C@]3(C)[C@@H]([C@H](C)CCOS(=O)(=O)O)CC[C@@H]23)[C@@]2(C)CC[C@@H](O)C[C@@H]12`, the inhibition was 7.05%.
With `CCOC(=O)c1ccc(C#Cc2ccc3c(c2)C(C)(C)CCS3)nc1` the inhibition was 12%.
`CC(C)N1CCN(c2ccc(OC[C@H]3CO[C@](Cn4cncn4)(c4ccc(Cl)cc4Cl)O3)cc2)CC1` (racemic) has an inhibition of -2.99%.
`CC(C)(CCCCCCCCCCC(C)(C)CC(=O)O)CC(=O)O` gave an inhibition of 6.58%.
`N[C@@H](CSSC[C@H](N)C(=O)O)C(=O)O` has an inhibition of -0.06%.
For `CC1=NN(c2ccc(C(=O)O)cc2)C(=O)/C1=C\c1ccc(-c2cc(C)c(C)cc2[N+](=O)[O-])o1`, the inhibition was 56%.
`CC(C)[C@H](CO)Nc1nc(Nc2ccc(C(=O)O)c(Cl)c2)c2ncn(C(C)C)c2n1` has an inhibition of 2.82%.
`Cc1cc(C2CCCCC2)n(O)c(=O)c1` has an inhibition of -8.59%.
For `O=C(N[C@@H](Cc1c[nH]c2ccccc12)C(=O)O)c1ccc(Cl)cc1`, the inhibition was 4.12%.
`O=C1NC(c2ccccc2)(c2ccccc2)C(=O)N1COP(=O)(O)O` has an inhibition of 5.08%.
`CC(=O)Nc1cccc2c1c(Sc1ccc(Cl)cc1)c(C)n2CC(=O)O` has an inhibition of 1.18%.
`Cc1cc(NC(=O)C2=C(O)c3ccccc3S(=O)(=O)N2C)no1` gave an inhibition of 3.22%.
`COc1cc2nc(N3CCCN(C)CC3)nc(NC3CCN(Cc4ccccc4)CC3)c2cc1OC` gave an inhibition of 26.4%.
`CN(C)/C=N/c1c(I)cc(I)c(CCC(=O)O)c1I` gave an inhibition of -0.92%.
The inhibition of `CC(=O)N(C)c1cc(-c2ccnc3c(C(=O)c4cccs4)cnn23)ccc1F` is reported as 0.96%.
The inhibition of `CN1CCCN=C1/C=C/c1cccs1` is reported as 12.6%.
The inhibition of `NC(=O)CCCCn1ccc(NC(N)=NCC(F)(F)F)n1` is reported as 4.45%.
For `c1ccc(C(NCc2cccnc2)(c2ccccc2)c2ccccc2)cc1`, the inhibition was -2.29%.
The inhibition of `COc1cccc(-c2ccc([C@@H](Oc3cc(-c4ccc(C[C@H](N)C(=O)O)cc4)nc(N)n3)C(F)(F)F)cc2)c1` is reported as 4.53%.
`C[C@@H]1CN(c2c(F)c(F)c3c(=O)c(C(=O)O)cn(C4CC4)c3c2F)C[C@H](C)N1` gave an inhibition of -1.43%.
`CCCCN1CCC(CNC(=O)c2c3n(c4ccccc24)CCCO3)CC1` has an inhibition of 7.02%.
The inhibition of `CCOC(=O)[C@@](C)(N)Cc1ccc(O)c(O)c1` is reported as 3.56%.
For `CN(C)C(=O)Oc1ccc[n+](C)c1`, the inhibition was 0.69%.
The inhibition of `CN(C)C(=O)Oc1cc(OC(=O)N(C)C)cc(C(O)CNC(C)(C)C)c1` (stereo not shown) is reported as 12.8%.
`COc1ccc(NC(=O)c2ccc(-c3ccc(-c4noc(C)n4)cc3C)cc2)cc1N1CCN(C)CC1` has an inhibition of 10.1%.

Study 5
Target: Sal-like protein 4, full length isoform A (SALL4, Homo sapiens, UniProt Q9UJQ4, residues 1-1053)
Sequence of UniProt Q9UJQ4 (whole entry, looked up): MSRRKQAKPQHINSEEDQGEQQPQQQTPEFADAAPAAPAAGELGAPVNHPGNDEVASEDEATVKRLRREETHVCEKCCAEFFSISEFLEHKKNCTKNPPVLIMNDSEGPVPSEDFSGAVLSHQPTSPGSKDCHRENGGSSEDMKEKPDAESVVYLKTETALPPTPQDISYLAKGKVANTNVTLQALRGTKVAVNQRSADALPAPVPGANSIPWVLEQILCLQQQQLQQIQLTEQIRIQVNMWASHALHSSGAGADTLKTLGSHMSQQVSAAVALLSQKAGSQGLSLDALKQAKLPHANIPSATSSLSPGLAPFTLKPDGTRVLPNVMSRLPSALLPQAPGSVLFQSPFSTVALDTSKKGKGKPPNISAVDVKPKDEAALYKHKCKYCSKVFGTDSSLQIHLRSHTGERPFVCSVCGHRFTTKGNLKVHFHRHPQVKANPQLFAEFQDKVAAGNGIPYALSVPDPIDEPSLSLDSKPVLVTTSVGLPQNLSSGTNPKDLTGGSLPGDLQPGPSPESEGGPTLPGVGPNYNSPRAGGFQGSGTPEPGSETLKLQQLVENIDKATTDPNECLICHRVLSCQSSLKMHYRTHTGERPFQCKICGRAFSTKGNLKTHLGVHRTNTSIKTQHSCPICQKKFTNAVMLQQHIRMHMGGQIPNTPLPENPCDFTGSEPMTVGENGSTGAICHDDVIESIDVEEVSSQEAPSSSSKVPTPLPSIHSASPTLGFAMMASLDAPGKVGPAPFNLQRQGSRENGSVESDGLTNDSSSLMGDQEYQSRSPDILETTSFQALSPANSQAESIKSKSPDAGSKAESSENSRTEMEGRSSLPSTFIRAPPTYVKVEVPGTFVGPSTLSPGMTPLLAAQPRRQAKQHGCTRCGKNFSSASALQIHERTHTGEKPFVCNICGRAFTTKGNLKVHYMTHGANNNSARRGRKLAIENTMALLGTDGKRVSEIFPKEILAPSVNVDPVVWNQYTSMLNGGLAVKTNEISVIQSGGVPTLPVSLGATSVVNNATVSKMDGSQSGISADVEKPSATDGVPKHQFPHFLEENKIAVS
Technique: universal PBM
Molecule type: double-stranded DNA, one strand shown
Medium: in vitro
Concentration: 600 nM
Notes: 8-mer, flanks averaged, mean of replicates
Direction: higher = stronger binding
`GGATGCCA` has an E-score of -0.225.
For `ACTCGACG`, the E-score was -0.145.
The E-score of `ATAACTCA` is reported as 0.277.
With `CTACTTTC` the E-score was 0.0345.
`CCAACCAA` gave an E-score of -0.159.
`CAAGTGCG` gave an E-score of -0.159.
`CGGCCCCA` has an E-score of -0.362.
With `ATTCGGCG` the E-score was -0.152.

Other studies, line by line
Technique: protein-binding microarray
Molecule type: double-stranded DNA, one strand shown
Medium: in vitro
Concentration: not given
Notes: k-mer, scored over probes, only values ≥0.25
Direction: higher = stronger binding
CTCF: Transcriptional repressor CTCF (CTCF, Homo sapiens, UniProt P49711, residues 1-727, full length assumed)
Sequence of UniProt P49711 (whole entry, looked up): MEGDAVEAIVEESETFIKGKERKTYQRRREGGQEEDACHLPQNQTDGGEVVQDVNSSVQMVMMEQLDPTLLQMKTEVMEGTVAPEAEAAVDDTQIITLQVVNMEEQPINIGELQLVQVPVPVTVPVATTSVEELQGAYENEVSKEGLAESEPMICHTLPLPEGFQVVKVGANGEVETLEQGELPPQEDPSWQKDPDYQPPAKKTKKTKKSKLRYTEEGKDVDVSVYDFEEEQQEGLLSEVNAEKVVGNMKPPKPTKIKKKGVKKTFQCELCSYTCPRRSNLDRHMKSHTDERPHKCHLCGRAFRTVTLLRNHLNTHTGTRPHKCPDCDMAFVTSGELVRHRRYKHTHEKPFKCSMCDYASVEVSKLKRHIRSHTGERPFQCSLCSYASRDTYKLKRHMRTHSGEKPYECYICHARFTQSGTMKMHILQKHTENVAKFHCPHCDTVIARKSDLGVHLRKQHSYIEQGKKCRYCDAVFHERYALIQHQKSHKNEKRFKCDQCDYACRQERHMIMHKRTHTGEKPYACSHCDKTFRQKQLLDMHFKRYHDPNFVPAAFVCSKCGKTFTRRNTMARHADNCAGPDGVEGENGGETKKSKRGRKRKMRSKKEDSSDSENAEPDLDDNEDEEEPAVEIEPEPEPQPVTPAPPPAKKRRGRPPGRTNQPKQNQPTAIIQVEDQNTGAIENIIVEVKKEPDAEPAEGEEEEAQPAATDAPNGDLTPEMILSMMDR
`CCACGTC` has an E-score of 0.371 (Cyclic AMP-dependent transcription factor ATF-1 (ATF1, Homo sapiens, UniProt P18846, residues 1-271, full length assumed)).
`AAATTATG` gave an E-score of 0.331 (CTCF).
The E-score of `CAACAAAA` is reported as 0.286 (CTCF).
`AGGAAGTG` gave an E-score of 0.473 (Protein C-ets-1 (ETS1, Homo sapiens, UniProt P14921, residues 1-441, full length assumed)).
